Results collected from several papers.
Parts stem from different laboratories: compare values within a part only. “And” joins repeats or separate records; there may be more than shown.
Sequence of UniProt P53667 (whole entry, looked up): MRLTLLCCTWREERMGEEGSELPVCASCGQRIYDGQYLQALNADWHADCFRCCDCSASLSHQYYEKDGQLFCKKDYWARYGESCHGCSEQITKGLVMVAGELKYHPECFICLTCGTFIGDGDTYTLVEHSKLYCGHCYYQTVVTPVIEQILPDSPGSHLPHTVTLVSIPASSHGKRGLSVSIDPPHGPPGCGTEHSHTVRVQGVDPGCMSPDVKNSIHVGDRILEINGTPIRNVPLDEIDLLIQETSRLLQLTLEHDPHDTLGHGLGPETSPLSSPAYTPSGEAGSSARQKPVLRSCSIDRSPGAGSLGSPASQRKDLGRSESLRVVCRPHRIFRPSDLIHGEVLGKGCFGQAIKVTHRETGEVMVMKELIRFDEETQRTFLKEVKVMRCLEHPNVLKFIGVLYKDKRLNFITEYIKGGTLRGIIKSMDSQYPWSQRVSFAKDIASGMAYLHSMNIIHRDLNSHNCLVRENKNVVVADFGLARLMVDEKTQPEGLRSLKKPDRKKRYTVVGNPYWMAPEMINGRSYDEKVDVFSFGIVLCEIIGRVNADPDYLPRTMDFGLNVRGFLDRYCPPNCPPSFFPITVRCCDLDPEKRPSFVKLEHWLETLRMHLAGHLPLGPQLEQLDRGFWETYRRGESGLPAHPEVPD
Sequence of UniProt Q9Y5S2 (whole entry, looked up): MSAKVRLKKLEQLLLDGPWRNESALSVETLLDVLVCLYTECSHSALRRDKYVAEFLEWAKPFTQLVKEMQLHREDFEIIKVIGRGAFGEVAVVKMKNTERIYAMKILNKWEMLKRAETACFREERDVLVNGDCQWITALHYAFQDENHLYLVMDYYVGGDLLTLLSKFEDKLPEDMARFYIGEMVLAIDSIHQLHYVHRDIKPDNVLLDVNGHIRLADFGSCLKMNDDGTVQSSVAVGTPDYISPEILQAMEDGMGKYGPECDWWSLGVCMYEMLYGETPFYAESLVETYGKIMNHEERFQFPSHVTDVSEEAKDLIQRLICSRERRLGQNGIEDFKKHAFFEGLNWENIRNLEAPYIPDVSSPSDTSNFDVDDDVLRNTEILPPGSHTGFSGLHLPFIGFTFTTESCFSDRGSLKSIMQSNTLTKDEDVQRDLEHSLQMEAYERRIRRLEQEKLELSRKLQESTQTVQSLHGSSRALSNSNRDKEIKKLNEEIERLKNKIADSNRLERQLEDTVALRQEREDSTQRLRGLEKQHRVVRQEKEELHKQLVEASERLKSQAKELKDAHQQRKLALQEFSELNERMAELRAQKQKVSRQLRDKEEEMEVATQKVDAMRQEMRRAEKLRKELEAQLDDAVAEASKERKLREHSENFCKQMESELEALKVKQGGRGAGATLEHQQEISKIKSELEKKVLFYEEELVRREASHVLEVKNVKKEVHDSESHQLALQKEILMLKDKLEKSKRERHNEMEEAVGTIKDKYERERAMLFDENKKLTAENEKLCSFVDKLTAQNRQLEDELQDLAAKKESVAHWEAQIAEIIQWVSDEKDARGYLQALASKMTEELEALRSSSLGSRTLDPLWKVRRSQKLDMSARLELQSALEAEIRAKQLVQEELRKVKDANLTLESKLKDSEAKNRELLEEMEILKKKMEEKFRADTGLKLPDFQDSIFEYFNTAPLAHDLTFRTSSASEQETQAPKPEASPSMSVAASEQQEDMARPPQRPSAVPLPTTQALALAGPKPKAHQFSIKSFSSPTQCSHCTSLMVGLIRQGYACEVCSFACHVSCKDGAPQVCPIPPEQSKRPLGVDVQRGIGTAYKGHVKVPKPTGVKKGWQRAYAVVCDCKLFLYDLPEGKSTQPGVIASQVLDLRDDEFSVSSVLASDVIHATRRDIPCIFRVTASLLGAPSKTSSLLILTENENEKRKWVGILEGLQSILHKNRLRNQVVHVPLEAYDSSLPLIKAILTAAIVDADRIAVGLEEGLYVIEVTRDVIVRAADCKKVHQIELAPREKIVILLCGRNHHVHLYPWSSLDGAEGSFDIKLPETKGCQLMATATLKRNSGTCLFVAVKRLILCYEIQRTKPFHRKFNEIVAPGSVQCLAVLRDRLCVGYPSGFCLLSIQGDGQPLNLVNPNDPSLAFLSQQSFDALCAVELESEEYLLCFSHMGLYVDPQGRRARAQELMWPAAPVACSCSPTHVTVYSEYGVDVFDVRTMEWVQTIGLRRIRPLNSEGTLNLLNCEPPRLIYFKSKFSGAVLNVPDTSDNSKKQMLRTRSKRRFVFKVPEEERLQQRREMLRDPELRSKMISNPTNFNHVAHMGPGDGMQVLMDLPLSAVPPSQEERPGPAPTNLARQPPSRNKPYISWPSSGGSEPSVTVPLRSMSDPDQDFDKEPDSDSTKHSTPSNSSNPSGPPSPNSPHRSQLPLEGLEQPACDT
Sequence of UniProt Q99640 (whole entry, looked up): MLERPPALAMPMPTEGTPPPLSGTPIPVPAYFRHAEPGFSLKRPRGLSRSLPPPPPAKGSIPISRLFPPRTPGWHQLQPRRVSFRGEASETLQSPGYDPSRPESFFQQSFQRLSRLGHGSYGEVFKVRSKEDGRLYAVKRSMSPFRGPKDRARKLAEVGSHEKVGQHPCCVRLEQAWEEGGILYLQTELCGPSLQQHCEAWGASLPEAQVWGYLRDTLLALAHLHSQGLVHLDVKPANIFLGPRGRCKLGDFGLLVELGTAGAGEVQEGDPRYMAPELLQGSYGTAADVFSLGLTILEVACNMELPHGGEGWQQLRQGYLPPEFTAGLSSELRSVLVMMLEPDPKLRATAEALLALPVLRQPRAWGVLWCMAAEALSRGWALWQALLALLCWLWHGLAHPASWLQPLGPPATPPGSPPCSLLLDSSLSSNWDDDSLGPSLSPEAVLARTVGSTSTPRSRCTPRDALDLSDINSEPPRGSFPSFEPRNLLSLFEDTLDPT
Sequence of UniProt Q15831 (whole entry, looked up): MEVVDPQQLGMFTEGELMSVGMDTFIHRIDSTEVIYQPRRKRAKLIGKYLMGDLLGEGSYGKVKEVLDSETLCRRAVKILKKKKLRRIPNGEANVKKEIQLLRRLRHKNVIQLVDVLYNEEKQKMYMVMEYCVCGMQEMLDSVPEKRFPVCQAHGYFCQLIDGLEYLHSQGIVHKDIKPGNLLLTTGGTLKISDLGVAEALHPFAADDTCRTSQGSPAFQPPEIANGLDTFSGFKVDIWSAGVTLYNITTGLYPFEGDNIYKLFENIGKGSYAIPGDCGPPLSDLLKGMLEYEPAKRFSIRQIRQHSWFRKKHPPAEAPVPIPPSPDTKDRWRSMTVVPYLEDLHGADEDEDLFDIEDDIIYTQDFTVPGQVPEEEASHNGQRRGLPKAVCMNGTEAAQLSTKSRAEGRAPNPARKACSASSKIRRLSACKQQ
Sequence of UniProt P49137 (whole entry, looked up): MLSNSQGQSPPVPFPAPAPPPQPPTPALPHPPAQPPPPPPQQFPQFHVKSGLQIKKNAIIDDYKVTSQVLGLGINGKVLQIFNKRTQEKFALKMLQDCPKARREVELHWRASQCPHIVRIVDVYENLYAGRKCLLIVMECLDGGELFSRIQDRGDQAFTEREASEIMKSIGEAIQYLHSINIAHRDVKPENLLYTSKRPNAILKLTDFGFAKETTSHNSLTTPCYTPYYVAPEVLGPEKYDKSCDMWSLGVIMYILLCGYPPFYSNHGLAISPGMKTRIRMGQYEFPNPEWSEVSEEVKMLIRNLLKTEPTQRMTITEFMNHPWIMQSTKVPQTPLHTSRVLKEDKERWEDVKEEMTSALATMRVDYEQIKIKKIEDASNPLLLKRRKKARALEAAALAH

Study 1
SMILES: COc1ccc2c(c1)O[C@@H](c1ccc(OC)c(OC)c1)C[C@H]2NC(=O)C1(c2ccc3c(c2)OC(F)(F)O3)CC1
Effect on: cell-free assay
Technique: competition with immobilised ligand
Tested at: 1 µM
The remaining binding was 90% (MAP4K3 (Homo sapiens, UniProt Q8IVH8)).
The remaining binding was 100% (RIOK3 (Homo sapiens, UniProt O14730)).
For RET (Homo sapiens, UniProt P07949): remaining binding read 99%.
For CHEK1 (Homo sapiens, UniProt O14757): remaining binding read 100%.
It gave 86% for remaining binding (KIT (Homo sapiens, UniProt P10721)).
The remaining binding was 100% (TIE1 (Homo sapiens, UniProt P35590)).
For MAP3K11 (Homo sapiens, UniProt Q16584): remaining binding read 100%.
The remaining binding was 90% (ACVR2A (Homo sapiens, UniProt P27037)).
For STK24 (Homo sapiens, UniProt Q9Y6E0): remaining binding read 96%.
It gave 100% for remaining binding (LIM domain kinase 1 (LIMK1, Homo sapiens, UniProt P53667)).
The remaining binding was 81% (MAP3K6 (Homo sapiens, UniProt O95382)).
The remaining binding was 91% (CDK4 (Homo sapiens, UniProt P11802)).
Ribosomal protein S6 kinase alpha-2, C-terminal kinase domain (RPS6KA2, Homo sapiens, UniProt Q15349) — remaining binding: 95%.
It gave 90% for remaining binding (PKMYT1 (Homo sapiens, UniProt Q99640)).
CSNK1A1 (Homo sapiens, UniProt P48729) — remaining binding: 78%.
GRK2 (Homo sapiens, UniProt P25098) — remaining binding: 100%.
Tyrosine-protein kinase ABL1, phosphorylated (ABL1, Homo sapiens, UniProt P00519, M351T) — remaining binding: 78%.
The remaining binding was 100% (MAPKAPK2 (Homo sapiens, UniProt P49137)).
For BUB1 (Homo sapiens, UniProt O43683): remaining binding read 99%.
The remaining binding was 100% (CDC42BPB (Homo sapiens, UniProt Q9Y5S2)).
STK11 (Homo sapiens, UniProt Q15831) — remaining binding: 65%.

Study 2
Target: Vascular endothelial growth factor receptor 1 (FLT1, Homo sapiens, UniProt P17948)
Sequence of UniProt P17948 (whole entry, looked up): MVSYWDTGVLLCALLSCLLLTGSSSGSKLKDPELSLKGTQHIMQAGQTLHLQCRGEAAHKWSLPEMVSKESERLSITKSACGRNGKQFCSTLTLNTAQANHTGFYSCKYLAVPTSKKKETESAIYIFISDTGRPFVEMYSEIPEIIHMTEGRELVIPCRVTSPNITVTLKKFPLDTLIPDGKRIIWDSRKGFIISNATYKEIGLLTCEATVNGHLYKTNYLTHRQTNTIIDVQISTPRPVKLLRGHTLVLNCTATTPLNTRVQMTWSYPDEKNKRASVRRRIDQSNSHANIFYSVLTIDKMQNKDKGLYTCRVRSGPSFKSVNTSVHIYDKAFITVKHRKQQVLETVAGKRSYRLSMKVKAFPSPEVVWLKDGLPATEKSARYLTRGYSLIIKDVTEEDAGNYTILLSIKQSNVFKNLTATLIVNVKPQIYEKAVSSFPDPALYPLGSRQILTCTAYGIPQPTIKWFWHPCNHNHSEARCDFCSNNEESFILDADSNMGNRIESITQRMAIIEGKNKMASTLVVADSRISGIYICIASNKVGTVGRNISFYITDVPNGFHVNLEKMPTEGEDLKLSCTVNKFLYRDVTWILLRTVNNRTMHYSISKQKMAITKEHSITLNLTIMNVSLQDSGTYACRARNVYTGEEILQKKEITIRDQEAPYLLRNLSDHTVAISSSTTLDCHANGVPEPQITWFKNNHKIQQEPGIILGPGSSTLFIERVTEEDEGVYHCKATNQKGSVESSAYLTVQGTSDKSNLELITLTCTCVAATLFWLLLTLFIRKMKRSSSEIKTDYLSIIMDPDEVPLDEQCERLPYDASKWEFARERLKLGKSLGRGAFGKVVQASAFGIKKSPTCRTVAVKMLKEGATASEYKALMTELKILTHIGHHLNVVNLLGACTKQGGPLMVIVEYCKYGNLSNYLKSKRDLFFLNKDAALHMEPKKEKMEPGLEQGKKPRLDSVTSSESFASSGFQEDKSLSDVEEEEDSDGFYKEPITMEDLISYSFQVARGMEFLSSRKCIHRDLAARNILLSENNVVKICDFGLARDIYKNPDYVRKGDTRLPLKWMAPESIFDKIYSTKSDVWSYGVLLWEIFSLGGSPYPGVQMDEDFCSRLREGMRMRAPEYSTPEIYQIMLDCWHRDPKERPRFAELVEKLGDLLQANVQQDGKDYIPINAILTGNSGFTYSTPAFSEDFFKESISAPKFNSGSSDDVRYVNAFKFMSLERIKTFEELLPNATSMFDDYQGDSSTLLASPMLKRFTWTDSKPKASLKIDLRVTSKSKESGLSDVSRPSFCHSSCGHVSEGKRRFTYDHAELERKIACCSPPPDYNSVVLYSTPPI
Effect on: enzyme activity
Action: inhibitor
Tested at: 0.5 µM
Relative to: control
With O=C(Nc1cccc(Nc2nccc(Nc3cccc(C(F)(F)F)c3)n2)c1)C1CC1 the remaining activity was 97%.
Cn1nc2c3c(cccc31)C(=O)c1ccccc1-2 has a remaining activity of 84.3%.
For CN(C)C[C@H]1CCn2c(c(C3=C(c4cn(C)c5ccccc45)C(=O)NC3=O)c3ccccc32)C1, the remaining activity was 91.3%.
COc1cc2ncnc(Nc3cccc(Cl)c3)c2cc1OC gave a remaining activity of 74.4%.
C[C@@H]1CCN(C(=O)CC#N)C[C@@H]1N(C)c1ncnc2[nH]ccc12 has a remaining activity of 101%.
The remaining activity of O=C1c2ccccc2-c2n[nH]c3cccc1c23 is reported as 87.3%.
For N#Cc1c(NC(=O)c2cccc3ccccc23)sc2c1CCCC2, the remaining activity was 84.4%.
O=C(NC(NC(=S)Nc1ccc(F)c([N+](=O)[O-])c1)C(Cl)(Cl)Cl)C(c1ccccc1)c1ccccc1 (centres unmarked) has a remaining activity of 97.2%.
The remaining activity of O=c1cc(-c2cccc3c2Sc2ccccc2S3)oc(N2CCOCC2)c1 is reported as 90.8%.
CCN(CC)CCNC(=O)c1c(C)[nH]c(/C=C2\C(=O)Nc3ccc(Cl)cc32)c1C has a remaining activity of 34.4%.
CCOc1nc(NC(=O)Cc2cc(OC)ccc2OC)cc(N)c1C#N gave a remaining activity of 85.5%.
For Cc1nc2cc3nc(-c4cccs4)cnc3cc2n1C, the remaining activity was 93.6%.
For N#C/C(=C\c1ccc(O)c(O)c1)C(=O)NCc1ccccc1, the remaining activity was 88%.
With c1ccc(-c2cnc(Nc3ccc(OCCN4CCCC4)cc3)s2)cc1 the remaining activity was 74.5%.
CCN(CC)C(=O)c1ccc(Nc2nc(OCC3CCCCC3)c3[nH]cnc3n2)cc1 gave a remaining activity of 84%.
The remaining activity of Cc1cc2ncc(-c3ccccc3)nc2cc1C is reported as 85.2%.
CCN(CC)CCNC(=O)c1c(C)[nH]c(/C=C2\C(=O)Nc3ccc(F)cc32)c1C has a remaining activity of 58.7%.
COc1cc2c(cc1OC)-c1[nH]nc(Nc3cccc(F)c3)c1C2 gave a remaining activity of 82.6%.
c1ccc(-c2[nH]ncc2-c2ccnc3ccccc23)nc1 gave a remaining activity of 81.4%.
For Nc1cccc(-c2cc3c(Oc4cccc(O)c4)ncnc3[nH]2)c1, the remaining activity was 8.56%.
COc1cc2ncnc(Nc3ccc(O)c(Br)c3)c2cc1OC gave a remaining activity of 83.4%.
Ic1cccc(CSc2nnc(-c3ccncc3)o2)c1 has a remaining activity of 91%.
O=C1C(Cl)=C(N2C(=O)CCC2=O)C(=O)c2ccccc21 gave a remaining activity of 87.8%.

Study 3
Cell line: mouse MPNST tumor cells
Technique: high-content immunofluorescence imaging
Measured: nuclear SOX9
Tested at: 10 µM
Time: 12 h
Setting: mean of 2 replicates
Relative to: DMSO control
Direction: higher = more nuclear SOX9
Under “nuclear SOX9 intensity”, CCCC(=O)C1CCN(c2ncnc3c2CN(C(=O)c2ccc(-c4ccccc4)cc2)CC3)CC1 is recorded as 137 % of DMSO.
COCc1ccc(-c2cc3c(N[C@@H](C)c4ccn(C)n4)c(C(N)=O)cnc3cc2F)cn1 — result for “nuclear SOX9 intensity”: 101 % of DMSO.
For COc1ccc(C#Cc2ccc(C(=O)N3CCC[C@@H](O)C3)c(F)c2)cc1, “nuclear SOX9 intensity” read 93.3 % of DMSO.
Under “nuclear SOX9 intensity”, Cc1ccccc1N1C(=O)c2cc(S(N)(=O)=O)c(Cl)cc2NC1C (centres unmarked) is recorded as 94.8 % of DMSO.
c1ccc(Cn2c(NCc3ccco3)nc3ccccc32)cc1 — result for “nuclear SOX9 intensity”: 97.9 % of DMSO.
COC1=C(OC)C(=O)C(CCCCCCCCCCO)=C(C)C1=O: “nuclear SOX9 intensity” 101 % of DMSO.
For CN(C)CCCOc1nn(Cc2ccccc2)c2ccccc12, “nuclear SOX9 intensity” read 116 % of DMSO.
CN(C)CCc1c[nH]c2ccc(Cn3cncn3)cc12 — result for “nuclear SOX9 intensity”: 83.7 % of DMSO and 89.6 % of DMSO.
For COc1ccc(N2CCN(C(CNC(=O)C3CCCCC3)c3ccc4c(c3)OCO4)CC2)cc1 (centres unmarked), “nuclear SOX9 intensity” read 108 % of DMSO.
C[C@H](N=C(NC#N)Nc1cccc2ncccc12)c1ccccc1: “nuclear SOX9 intensity” 108 % of DMSO.

Study 4
Organism: Sarcocystis neurona
Effect on: parasite growth
Tested at: 10 µM
Time: 96 h
Setting: second screen
Relative to: untreated
For CC(C)NCC(O)c1cc(O)cc(O)c1 (centres unmarked), “log2 fold change” read 0.39.
For O=C1CCc2ccc(OCCCCN3CCN(c4cccc(Cl)c4Cl)CC3)cc2N1, “log2 fold change” read 0.04.
Under “log2 fold change”, CC/C(=C(\c1ccccc1)c1ccc(OCCN(C)C)cc1)c1ccccc1 is recorded as 0.36.
For c1ccc2[nH]c(-c3cscn3)nc2c1, “log2 fold change” read 2.36.
Under “log2 fold change”, CC1=C(/C=C/C(C)=C/C=C/C(C)=C\C(=O)O)C(C)(C)CCC1 is recorded as 0.61.
Under “log2 fold change”, CN(C)CC[C@@H](c1ccc(Cl)cc1)c1ccccn1 is recorded as 0.25.
CC(=O)NC[C@H]1CN(c2ccc(N3CCOCC3)c(F)c2)C(=O)O1: “log2 fold change” -0.11.
For CCOC(=O)C1=C(C)NC(C)=C(C(=O)OCC)C1c1ccccc1/C=C/C(=O)OC(C)(C)C, “log2 fold change” read 0.09.
CC[N+](C)(C)c1cccc(O)c1 — result for “log2 fold change”: 0.2.
For CN(CCCN1c2ccccc2CCc2ccccc21)CC(=O)c1ccc(Cl)cc1, “log2 fold change” read -0.0535.
Under “log2 fold change”, CCN1CCCC1CNC(=O)c1cc(S(=O)(=O)CC)c(N)cc1OC (centres unmarked) is recorded as 0.15.
